Assay results of several laboratories.
Protocols differ between the studies behind these lines. ± gives the spread as reported.
Cell line: HCT-116

SMILES	assay	test system	setting	IC50
COc1cc2c(=O)c(-c3ccc4c(c3)OCO4)coc2c2c1OC(C)(C)C=C2	cell growth or viability, MTT	–	72 h	15.1 µM
CCC1=C(CC)C2=[N+]3C1=Cc1c(CC)c(CC)c4[n]1[Ir-3]31([Cl])([C]#[O+])[n]3c(c(CC)c(CC)c3=CC3=[N+]1C(=C4)C(CC)=C3CC)=C2	cell growth or viability, MTT	–	72 h	> 50 µM
CN1CCC(S(=O)(=O)NC23CCCC(C)(CCC4C2CC4(C)C)C3)CC1 (stereo not shown)	cell growth or viability, CCK-8	–	72 h	31 µM
CCNC(=S)N/N=C(\C)c1c(O)c2ccccc2oc1=O	cell growth or viability, MTT	–	48 h	17.8 µM
O=C(Cn1c(=O)c(Cc2ccccc2)nc2ccccc21)OCCNCCO	cell growth or viability, MTT	–	72 h	0.057 µM
Nc1ccccc1NC(=O)c1ccc(Nc2nccc(-c3cn(C4CCCC4)nn3)n2)cc1	cell growth or viability, SRB	–	72 h	2.2 µM
Cc1cc(N2CCN(C(=O)CN3CCN(C)CC3)CC2)n2ncnc2n1	cell growth or viability, MTT	–	–	65.8 µM
CC(C)c1ccc2c(c1)CCC1[C@](C)(C(=O)OCCSc3nccc(O)n3)CCC[C@]21C (stereo partly shown)	cell growth or viability, MTT	–	48 h	9.53 to 19.4 µM
C/C(=N\NC(=S)N(C)C)c1ccc(S(=O)(=O)N2CCC(C)CC2)cc1	cell growth or viability, MTT	–	–	11.8 µM
CC(C)Cn1cc(-c2ccnc(Nc3ccc(C(=O)Nc4ccccc4N)cc3)n2)nn1	cell growth or viability, SRB	–	72 h	4.72 µM
Cc1c(C)c(C)[c-](C)c1C.OCc1ccnc(-c2[c-]cccc2)c1.[Cl-].[Ir+3]	SRB	–	24 h, 72 h recovery	57.3 ± 0.9 µM
Cc1ccc(C(C)C)cc1.[Cl][Ru]([Cl])[P](CP(c1ccccc1)c1ccccc1)(c1ccccc1)c1ccccc1	cell growth or viability, trypan blue	–	48 h	21.9 µM
Nc1ccccc1NC(=O)c1ccc(Nc2nccc(-c3cn(C4CCCCC4)nn3)n2)cc1	cell growth or viability, SRB	–	72 h	2.13 µM
COc1cc(OC)c(-c2coc3c4c(c(OC)cc3c2=O)OC(C)(C)C=C4)cc1OC	cell growth or viability, MTT	–	72 h	19.8 µM
CC(C)c1cccc(C(C)C)c1[N+]#[C][Pd-]([Cl])([Cl])=[C](Nc1cccc(CN[C](Nc2c(C(C)C)cccc2C(C)C)=[Au][Cl])c1)Nc1c(C(C)C)cccc1C(C)C	cell growth or viability	–	–	40 µM
CO[C@@H]1[C@@H](O[C@@H]2O[C@H](C)[C@@H](O[C@H]3C[C@@](C)(O)[C@@H](OC(=O)c4ccccc4)[C@H](C)O3)[C@H](N(C)C)[C@H]2O)[C@@H](CC=O)C[C@@H](C)[C@@H](O[C@H]2CC[C@H](N(C)C)[C@@H](C)O2)/C=C/C=C/C[C@@H](C)OC(=O)C[C@H]1O	cell growth or viability, CCK-8	–	72 h	9.21 µM
Cc1cc(C)c([N+]#[C][Pd-]([Cl])([Cl])=[C](Nc2ccc(CN[C](Nc3c(C(C)C)cccc3C(C)C)=[Au][Cl])cc2)Nc2c(C)cc(C)cc2C)c(C)c1	cell growth or viability	–	–	> 100 µM
Fc1ccccc1/C=C/c1nc2ccccc2nc1N1CCOCC1	cell growth or viability, MTT	–	72 h	11 µM
CCN1CCC2(CC1)C/C(=N\N=C\c1ccc(O)cc1)c1ccccc1O2	–	–	48 h	49.5 ± 2.1 µM
O=C(NNc1nc(-c2ccccc2)cs1)c1cc2c(ccc3ccccc32)oc1=O	cell growth or viability, SRB	–	72 h	76.9 µM
CSc1nc(Nc2cccc(/C(C)=N/NC(=O)c3ccc(O)cc3)c2)c(C#N)c(-c2ccccc2)n1	cell growth or viability, MTT	–	48 h	21.4 µM
O=C(NCCNc1n[n+]([O-])c2ccccc2[n+]1[O-])C(F)(F)F	cytotoxicity, MTT	–	24 h, normoxia	44 ± 17.2 µM
O=C(CCn1nc(Cc2ccccc2)c2ccccc2c1=O)NCC(=O)N1CCOCC1	cell growth or viability, MTT	–	48 h	≥ 50 µM
CSc1nc(Nc2ccc(/C(C)=N/NC(=O)c3ccccc3)cc2)c(C#N)c(-c2ccccc2)n1	cell growth or viability, MTT	–	48 h	23.6 µM
Fc1ccc(-c2cn(CSc3ccccc3)nn2)c(F)c1	cell growth or viability, MTS	–	72 h	20.5 µM
Cc1c(C(=O)NNC(=O)Nc2ccc(Cl)cc2)nnn1Cc1nc2ccccc2[nH]1	–	–	48 h	37.7 ± 2.6 µM
CC(=O)O[C@H]1CC[C@]2(C)[C@H]3CC=C4[C@@H]5[C@@H](C)[C@H](C)CC[C@]5(C)CC[C@@]4(C)[C@]3(C)CC[C@H]2C1(C)C	cell growth or viability, resazurin	–	96 h	4.07 µg/mL
O=C(NCCCCCCNc1n[n+]([O-])c2ccccc2[n+]1[O-])C(F)(F)F	cytotoxicity, MTT	–	24 h, hypoxia	63.9 µM

SMILES	assay	test system	setting	IC50
CSc1nc(N)c2c(F)c(C#N)c(F)c(Cl)c2n1	cell growth or viability, MTT	–	96 h	5.08 µM
CN1CCCC1CS(=O)(=O)NC12CCCC(C)(CCC3C1CC3(C)C)C2 (stereo not shown)	cell growth or viability, CCK-8	–	72 h	34.6 µM
CC(C)c1cccc(C(C)C)c1[N+]#[C][Pt-2]([Cl])([Cl])[C]#[N+]c1c(C(C)C)cccc1C(C)C	cell growth or viability	–	–	0.6 µM
COc1cccc2cc(C(=O)NNC(N)=S)c(=O)oc12	cell growth or viability, SRB	–	72 h	36.2 µM
CNS(=O)(=O)Nc1cccc(-n2c(=O)n(C3CC3)c(=O)c3c(Nc4ccc(I)cc4F)n(C)c(=O)c(C)c32)c1	cell viability, resazurin	–	120 h, low attachment	7e-05 ± 4e-05 µM
CSc1nc(Nc2ccc(/C(C)=N/NC(=O)c3cccc(Cl)c3)cc2)c(C#N)c(-c2ccccc2)n1	cell growth or viability, MTT	–	48 h	10.5 µM
COC(=O)CCNC(=O)CNC(=O)CCn1nc(Cc2ccccc2)c2ccccc2c1=O	cell growth or viability, MTT	–	48 h	0.32 µM
O=C(NCCCNc1n[n+]([O-])c2ccccc2[n+]1[O-])C(F)(F)F	cytotoxicity, MTT	–	24 h, normoxia	55.4 ± 4.7 µM
O=C(CCc1nc2cc(Cl)ccc2[nH]c1=O)Nc1ccc(F)cc1	cell growth or viability, MTT	–	–	93.1 µM
COC(=O)Cn1c(=O)c(Cc2ccccc2)nc2ccccc21	cell growth or viability, MTT	–	72 h	0.438 µM
Cc1cc(C)c([N+]#[C][Pt-]([Cl])([Cl])=[C](Nc2ccc(CN[C](Nc3c(C)cc(C)cc3C)=[Au][Cl])cc2)Nc2c(C)cc(C)cc2C)c(C)c1	cell growth or viability	–	–	14 µM
COc1ccc(NC(=O)c2ccc(NC(=O)CN3C(=O)S/C(=C\c4ccccc4OC)C3=O)cc2)cc1	cell growth or viability, MTT	–	–	28.9 µM
N#Cc1c(F)c(Cl)c2nc(SCc3ccc4ccccc4c3)nc(N)c2c1F	cell growth or viability, MTT	–	96 h	5.63 µM
COc1cc(-c2ccc(C(=O)N/N=C/c3ccc(N(C)C)cc3)c(C)n2)cc(OC)c1OC	cell growth or viability, MTT	–	–	30.2 µM
CC(C)c1ccc2c(c1)CCC1[C@](C)(C(=O)OCCSc3nc(O)c(C#N)c(-c4ccccc4F)n3)CCC[C@]21C (stereo partly shown)	cell growth or viability, MTT	–	48 h	9.53 to 19.4 µM
N=C(N)NCCC[C@H](N)C(=O)N1CCC[C@H]1C(=O)N[C@@H](Cc1ccc(O)cc1)C(N)=O	–	–	–	> 100 µM
NC1=N[N+](=Cc2c3ccccc3cc3ccccc23)[Ga-3]23([S]1)([S]C(N)=N[N+]2=Cc1c2ccccc2cc2ccccc12)[S]C(N)=N[N+]3=Cc1c2ccccc2cc2ccccc12	–	–	72 h	13.1 ± 1.2 µM
Cc1cc(C)c([N+]#[C][Pt-]([Cl])([Cl])=[C](Nc2cccc(CN[C](Nc3c(C)cc(C)cc3C)=[Au][Cl])c2)Nc2c(C)cc(C)cc2C)c(C)c1	cell growth or viability	–	–	> 100 µM
CCCCCC(=O)O[C@H]1[C@H](C)O[C@@H](O[C@H]2[C@H](N(C)C)[C@@H](O)[C@H](O[C@H]3[C@@H](CC=O)C[C@@H](C)[C@@H](O[C@H]4CC[C@H](N(C)C)[C@@H](C)O4)/C=C/C=C/C[C@@H](C)OC(=O)C[C@@H](O)[C@@H]3OC)O[C@@H]2C)C[C@@]1(C)O	cell growth or viability, CCK-8	–	72 h	38.5 µM
Cc1cc(C)c(N[C](NCc2ccc(N[C](Nc3c(C(C)C)cccc3C(C)C)=[Pd-]([Cl])([Cl])[C]#[N+]c3c(C(C)C)cccc3C(C)C)cc2)=[Au][Cl])c(C)c1	cell growth or viability	–	–	> 100 µM
CCCCCCCC(=O)O[C@H]1[C@H](C)O[C@@H](O[C@H]2[C@H](N(C)C)[C@@H](O)[C@H](O[C@H]3[C@@H](CC=O)C[C@@H](C)[C@@H](O[C@H]4CC[C@H](N(C)C)[C@@H](C)O4)/C=C/C=C/C[C@@H](C)OC(=O)C[C@@H](O)[C@@H]3OC)O[C@@H]2C)C[C@@]1(C)O	cell growth or viability, CCK-8	–	72 h	10.6 µM
O=C(NCCCCCCCNc1n[n+]([O-])c2ccccc2[n+]1[O-])C(F)(F)F	cytotoxicity, MTT	10% FBS medium	6 h + 18 h, hypoxia 3% O2	47.9 ± 3.7 µM
CN1CCC2(CC1)C/C(=N\NC(=O)Nc1ccc(Cl)cc1)c1ccccc1O2	–	–	48 h	2.58 ± 0.13 µM
CCCCCCCCSc1nc(N)c2c(F)c(C#N)c(F)c(F)c2n1	cell growth or viability, MTT	–	96 h	55.1 µM
COC(=O)C(NC(=O)CNC(=O)CNC(=O)COc1ccc2c(C)cc(=O)oc2c1)c1ccccc1 (stereo in doubt)	cell growth or viability, MTT	–	–	140 µM
Cc1cc(C)c(N[C](NCc2ccc(N[C](Nc3c(C(C)C)cccc3C(C)C)=[Pt-]([Cl])([Cl])[C]#[N+]c3c(C(C)C)cccc3C(C)C)cc2)=[Au][Cl])c(C)c1	cell growth or viability	–	–	> 100 µM
CCCCc1ccc(C(=O)O[C@H]2[C@H](C)O[C@@H](O[C@H]3[C@H](N(C)C)[C@@H](O)[C@H](O[C@H]4[C@@H](CC=O)C[C@@H](C)[C@@H](O[C@H]5CC[C@H](N(C)C)[C@@H](C)O5)/C=C/C=C/C[C@@H](C)OC(=O)C[C@@H](O)[C@@H]4OC)O[C@@H]3C)C[C@@]2(C)O)cc1	cell growth or viability, CCK-8	–	72 h	3.51 µM
